Assay results pooled from the literature.
Protocols differ between the studies behind these lines. Several values in a cell are separate wells, animals, samples, runs or records.
Target: Voltage-gated inwardly rectifying potassium channel KCNH2 (KCNH2, Homo sapiens, UniProt Q12809)
Sequence of UniProt Q12809 (whole entry, looked up): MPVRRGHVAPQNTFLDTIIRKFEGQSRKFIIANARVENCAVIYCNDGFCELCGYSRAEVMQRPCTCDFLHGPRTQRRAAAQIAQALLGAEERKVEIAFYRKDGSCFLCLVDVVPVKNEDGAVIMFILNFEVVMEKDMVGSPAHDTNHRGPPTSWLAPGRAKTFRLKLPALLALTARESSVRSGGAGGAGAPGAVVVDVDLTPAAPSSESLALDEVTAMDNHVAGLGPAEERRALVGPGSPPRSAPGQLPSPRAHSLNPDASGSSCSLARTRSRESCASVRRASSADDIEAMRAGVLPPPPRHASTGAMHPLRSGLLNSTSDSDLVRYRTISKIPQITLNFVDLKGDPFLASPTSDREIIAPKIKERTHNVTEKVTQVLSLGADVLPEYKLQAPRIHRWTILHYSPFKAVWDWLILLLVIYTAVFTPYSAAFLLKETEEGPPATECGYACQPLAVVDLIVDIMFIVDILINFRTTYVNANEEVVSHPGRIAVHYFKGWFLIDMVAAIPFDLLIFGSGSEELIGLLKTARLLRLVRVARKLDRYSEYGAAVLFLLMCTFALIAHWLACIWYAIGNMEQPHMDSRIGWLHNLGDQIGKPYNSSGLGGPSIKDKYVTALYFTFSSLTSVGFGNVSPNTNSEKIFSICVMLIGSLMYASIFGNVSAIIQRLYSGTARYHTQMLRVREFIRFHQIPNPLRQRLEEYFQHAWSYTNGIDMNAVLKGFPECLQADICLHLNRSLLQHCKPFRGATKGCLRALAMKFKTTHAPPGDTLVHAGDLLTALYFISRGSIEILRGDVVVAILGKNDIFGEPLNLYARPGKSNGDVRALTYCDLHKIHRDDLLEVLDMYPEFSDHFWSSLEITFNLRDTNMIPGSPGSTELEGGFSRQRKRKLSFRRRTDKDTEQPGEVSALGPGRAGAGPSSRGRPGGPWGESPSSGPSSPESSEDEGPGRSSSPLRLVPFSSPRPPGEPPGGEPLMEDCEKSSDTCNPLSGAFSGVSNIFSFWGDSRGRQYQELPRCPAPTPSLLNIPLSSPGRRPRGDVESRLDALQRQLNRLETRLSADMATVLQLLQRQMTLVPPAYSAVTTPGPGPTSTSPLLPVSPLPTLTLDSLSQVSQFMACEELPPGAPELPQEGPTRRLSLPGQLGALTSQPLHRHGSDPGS

With `CCNCC#CCNc1ccnc2cc(Cl)ccc12` the IC50 was 5.3 µM (binding, inhibitor, fluorescence polarization; 4 h).
With `CCN(C(=O)c1cc(F)ccc1Oc1nncnc1N1CCC2(C1)CN([C@H](CCCN(C)CCOC)C(C)C)C2)C(C)C` the IC50 was over 30 µM (ion current, inhibitor).
`O=c1c2cc(-c3ccc(Cl)cc3)nc(-c3cccnc3)c2ncn1C1CCC(OP(=O)(O)O)CC1` (stereo not drawn) gave an IC50 of over 10 µM (ion current, inhibitor).
`CN(Cc1nc2ccccc2s1)C(=O)c1cccc(S(=O)(=O)N2CCc3ccccc3C2)c1` has an IC50 of 8.43 µM (ion current, inhibitor).
For `Cc1ccc(O)c(C)c1OCC(C)N` (stereo not drawn), the IC50 was 22.4 µM (ion current, inhibitor, patch clamp).
`COc1ccc2c(c1OCc1ccccc1)C[C@@H](C(=O)O)N(c1nc3ccc(C#N)cc3o1)C2` has an IC50 of over 10 µM (ion current, inhibitor, patch clamp; CHO; pH 7.4).
`CN(C)C(CNC(=O)Nc1cc(C(F)(F)F)ccc1N1CCOCC1)c1ccncc1` (stereo not drawn) gave an IC50 of over 30 µM (ion current, inhibitor, patch clamp).
For `O=C(COc1cc2ccccc2cc1C(=O)NCc1ccccc1)Nc1ccccc1N1CCCC1=O`, the IC50 was 13.3 µM (ion current, inhibitor).
`CCN(CC)CC#CCNc1ccnc2cc(Cl)ccc12` gave an IC50 of 7 µM (binding, inhibitor, fluorescence polarization; 4 h).
The IC50 of `Cc1cc(/C=C/C#N)cc(C)c1Oc1nc(NC2CCN(Cc3ccc(S(C)(=O)=O)cc3)CC2)nc2ncccc12` is reported as 1.48 µM (ion current, inhibitor, manual patch clamp; CHO-hERG).
With `Cc1cccc(C)c1NC(=O)CC(C)NCc1cccc2ccccc12` (stereo not drawn) the IC50 was 6 µM and 5.9 µM (ion current, inhibitor, patch clamp; tsA201; pH 7.4).
With `O=C(c1cccc(S(=O)(=O)N2CCc3ccccc3C2)c1)N1CCO[C@H](c2ccc(F)cc2)C1` the IC50 was 8.93 µM (ion current, inhibitor).
For `CCOc1c(C(C)(C)O)sc2cnc(Nc3ccc(N4CCC(N5CC6(COC6)C5)CC4)cc3OC)nc12`, the IC50 was 21.4 µM (ion current, inhibitor, patch clamp; CHO).
The IC50 of `CCC(=O)N(C)c1ccc(Cl)c(Cl)c1` is reported as over 100 µM (hERG current, inhibitor, automated patch clamp; HEK293 stably expressing hERG).
The IC50 of `Clc1ccc2c(c1)nc(N1CC3CNCC3C1)n2Cc1ccccc1` (stereo not drawn) is reported as 0.02 µM (ion current, inhibitor).
For `CS(=O)(=O)c1sc(NC(=O)Nc2ccc(Cl)cc2)c2c1C=CCC2`, the IC50 was over 80 µM (ligand displacement, FP; cell membranes).
For `Cn1cc(-c2cc(N3CCCS3(=O)=O)ccc2N[C@H]2CC[C@H](C)CC2)c2cc[nH]c2c1=O`, the IC50 was over 40 µM (ion current, inhibitor).
The IC50 of `CCN(c1nc(N[C@H](CC(N)=O)C(=O)NC)nc(N2CCN(c3ccccc3C#N)CC2)n1)C1CCCCC1` is reported as over 100 µM (ion current, inhibitor).
